Measured values of several laboratories.
Compare with care: the assays were run in different laboratories.
Target: Tyrosine-protein phosphatase non-receptor type 1 (PTPN1, Homo sapiens, UniProt P18031)
Residues used in one study (P18031 1-435): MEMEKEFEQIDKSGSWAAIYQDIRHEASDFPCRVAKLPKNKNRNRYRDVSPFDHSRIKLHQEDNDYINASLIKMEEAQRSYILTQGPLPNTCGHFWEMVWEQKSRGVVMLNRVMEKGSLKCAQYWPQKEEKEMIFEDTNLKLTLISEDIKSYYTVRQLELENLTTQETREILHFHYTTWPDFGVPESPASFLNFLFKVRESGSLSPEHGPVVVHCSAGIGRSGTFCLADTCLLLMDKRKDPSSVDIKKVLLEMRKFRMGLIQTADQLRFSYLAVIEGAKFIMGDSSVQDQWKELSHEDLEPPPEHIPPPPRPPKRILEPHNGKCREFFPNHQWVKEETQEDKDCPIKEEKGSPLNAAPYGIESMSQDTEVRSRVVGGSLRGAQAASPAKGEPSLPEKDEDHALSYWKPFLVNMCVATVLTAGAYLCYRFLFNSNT

SMILES	assay	setting	quantity	value
NC1=NN=Cc2ccccc2[O][V](=[O])[O]1.c1cnc2c(c1)ccc1cccnc12	enzyme activity, inhibitor		IC50	270 nM
Cc1ccccc1N1C(=O)/C(=C/c2ccc(OCc3cccc(C(=O)O)c3)cc2)C(=O)NC1=S	enzyme activity, inhibitor		IC50	1590 nM
CC(C)=CCC[C@](C)(O[C@@H]1O[C@H](CO[C@@H]2O[C@H](CO)[C@@H](O)[C@H](O)[C@H]2O)[C@@H](O)[C@H](O)[C@H]1O)C1CC[C@]2(C)C1[C@H](O)CC1[C@@]3(C)CC[C@H](O[C@@H]4O[C@H](CO)[C@@H](O)[C@H](O)[C@H]4O[C@@H]4O[C@H](CO)[C@@H](O)[C@H](O)[C@H]4O[C@@H]4OC[C@@H](O)[C@H](O)[C@H]4O)C(C)(C)C3CC[C@]12C (some centres unmarked)	enzyme activity, inhibitor, absorbance	pH 7.4	IC50	> 100000 nM
C=CC1C(OC2OC(CO)C(O)C(O)C2O)OC=C2C(=O)OCCC21 (centres unmarked)	enzyme activity, inhibitor, absorbance		IC50	> 100000 nM
CC(C)[C@H]1NC(=O)[C@H](CO)NC(=O)c2cc3cc(c2)C(=O)NC[C@H](NC(=O)[C@H](Cc2c[nH]cn2)NC(=O)[C@H](Cc2ccc(C(F)(F)P(=O)(O)O)cc2)NC(=O)[C@@H]2CCCN2C1=O)C(=O)N[C@@H](Cc1ccccc1)C(=O)N[C@@H](Cc1ccc2ccccc2c1)C(=O)N[C@@H](CCCNC(=N)N)C(=O)N[C@@H](CCCNC(=N)N)C(=O)N[C@@H](CCCNC(=N)N)C(=O)N[C@@H](CCCNC(=N)N)C(=O)N[C@H](C(=O)N[C@@H](CCCCN)C(N)=O)CNC3=O	enzyme activity, inhibitor, absorbance		Ki	37 nM
CC(=O)N[C@H]1CCCCn2cc3ccccc3c2SC[C@@H](C(N)=O)NC(=O)[C@H](Cc2ccc(O)cc2)NC(=O)[C@H](CCCNC(=N)N)NC(=O)[C@H](Cc2c[nH]c3ccccc23)NC(=O)[C@H](Cc2c[nH]cn2)NC(=O)[C@H](CC(C)C)NC(=O)[C@H](Cc2ccccc2)NC(=O)[C@H]([C@@H](C)O)NC1=O	binding, BLI		Kd	1900 nM
CC(C)=CCC[C@](C)(O[C@@H]1O[C@H](CO[C@@H]2O[C@@H](CO)[C@H](O)[C@H]2O)[C@@H](O)[C@H](O)[C@H]1O)C1CC[C@]2(C)C1[C@H](O)CC1[C@@]3(C)CC[C@H](O[C@@H]4O[C@H](CO)[C@@H](O)[C@H](O)[C@H]4O)C(C)(C)C3CC[C@]12C (some centres unmarked)	enzyme activity, inhibitor, absorbance	pH 7.4	IC50	> 100000 nM
CC(C)=C/C=C/[C@@H](C)[C@H]1CC[C@@H]2[C@]1(C)CC[C@H]1[C@]23C=C[C@]2(C[C@@H](O)CC[C@]12C)OO3	enzyme activity, inhibitor, absorbance		IC50	570 nM

Some of these lines once more:
SMILES	assay	setting	quantity	value
CC(C)=CCC[C@](C)(O[C@@H]1O[C@H](CO[C@@H]2O[C@@H](CO)[C@H](O)[C@H]2O)[C@@H](O)[C@H](O)[C@H]1O)C1CC[C@]2(C)C1[C@H](O)CC1[C@@]3(C)CC[C@H](O[C@@H]4O[C@H](CO)[C@@H](O)[C@H](O)[C@H]4O)C(C)(C)C3CC[C@]12C (some centres unmarked)	enzyme activity, inhibitor, absorbance	pH 7.4	IC50	> 100000 nM
